Published values gathered from unrelated publications.
Every numbered part comes from another study and shows a few of its results, in no order. Positions count from the first letter of the parent shown.

Study 1
Target: CCND2, cyclin fold, Cln2 fusion (human)
Method: yeast growth competition, sequencing
Medium: yeast
Notes: weak parent motif
Baseline: not given
Direction: higher = stronger binding
Parent: viral docking peptide; KGVKRKLFAEDSS; partner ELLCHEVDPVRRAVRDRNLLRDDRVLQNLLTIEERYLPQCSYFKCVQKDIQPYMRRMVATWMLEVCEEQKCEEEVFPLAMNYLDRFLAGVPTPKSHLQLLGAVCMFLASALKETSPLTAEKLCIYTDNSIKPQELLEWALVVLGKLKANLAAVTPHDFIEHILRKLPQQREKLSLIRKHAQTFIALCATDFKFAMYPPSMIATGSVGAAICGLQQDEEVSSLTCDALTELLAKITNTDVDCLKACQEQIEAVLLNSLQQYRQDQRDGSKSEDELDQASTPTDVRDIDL
For `G2Y`, “normalised enrichment score” read 0.0835.
For `V3I`, “normalised enrichment score” read 0.152.
`E10S`: “normalised enrichment score” -0.138.

Study 2
Target: UDP-N-acetylglucosamine--peptide N-acetylglucosaminyltransferase 110 kDa subunit (OGT, Homo sapiens, UniProt O15294)
Sequence of UniProt O15294 (whole entry, looked up): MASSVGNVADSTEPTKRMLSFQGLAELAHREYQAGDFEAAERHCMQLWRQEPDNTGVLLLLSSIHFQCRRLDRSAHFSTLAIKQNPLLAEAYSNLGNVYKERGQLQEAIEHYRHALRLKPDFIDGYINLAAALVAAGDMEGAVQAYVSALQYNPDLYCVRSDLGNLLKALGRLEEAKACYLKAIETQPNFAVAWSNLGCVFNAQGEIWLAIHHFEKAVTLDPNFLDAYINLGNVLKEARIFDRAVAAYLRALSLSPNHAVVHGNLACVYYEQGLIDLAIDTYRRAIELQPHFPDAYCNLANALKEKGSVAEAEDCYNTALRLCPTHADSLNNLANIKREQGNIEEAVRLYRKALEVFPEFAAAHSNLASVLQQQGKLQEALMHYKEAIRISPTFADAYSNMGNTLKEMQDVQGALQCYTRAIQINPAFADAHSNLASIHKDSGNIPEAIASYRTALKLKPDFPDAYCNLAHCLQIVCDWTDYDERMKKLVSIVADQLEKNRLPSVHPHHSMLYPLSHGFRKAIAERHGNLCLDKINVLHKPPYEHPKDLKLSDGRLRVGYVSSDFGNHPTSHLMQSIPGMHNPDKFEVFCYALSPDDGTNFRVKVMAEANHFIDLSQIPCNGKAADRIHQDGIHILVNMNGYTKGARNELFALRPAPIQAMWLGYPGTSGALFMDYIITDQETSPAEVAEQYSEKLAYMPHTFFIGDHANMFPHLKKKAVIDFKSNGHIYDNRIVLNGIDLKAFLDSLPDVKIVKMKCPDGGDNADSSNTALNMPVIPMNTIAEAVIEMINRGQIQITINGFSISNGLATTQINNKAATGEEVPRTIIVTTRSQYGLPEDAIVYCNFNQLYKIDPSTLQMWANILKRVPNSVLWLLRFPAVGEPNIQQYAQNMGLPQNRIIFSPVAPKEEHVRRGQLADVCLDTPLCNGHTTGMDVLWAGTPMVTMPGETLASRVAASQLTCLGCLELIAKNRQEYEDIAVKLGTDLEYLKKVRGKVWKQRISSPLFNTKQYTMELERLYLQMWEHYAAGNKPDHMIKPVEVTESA
Effect on: binding
Method: phage display NGS
Molecule type: peptide
Tested at: concentration not given
Notes: normalized abundance
Baseline: input library
`SYIPGRVFPPQYQIT`: “enrichment fold change” 3.29.
Under “enrichment fold change”, `TMRHTHDWIWQHGVQ` is recorded as 10.8.
`VANMHHHVDHTAHGS`: “enrichment fold change” 10.4.

Study 3
Target: RING finger protein unkempt homolog, zinc fingers 1-6, GST-SBP tag (UNK, Homo sapiens, UniProt Q9C0B0, residues 30-357)
Method: RNA Bind-n-Seq
Molecule type: RNA
Medium: in vitro
Tested at: not given
Notes: RNA with constant flanks, human and mouse sites, ends assumed
Baseline: input RNA pool
Direction: higher = stronger binding
Constant ends, left off below: GGGAGUUCUACAGUCCGACGAUC … CAACAGAGGAUUGAGCAUCA
Target sequence (chain): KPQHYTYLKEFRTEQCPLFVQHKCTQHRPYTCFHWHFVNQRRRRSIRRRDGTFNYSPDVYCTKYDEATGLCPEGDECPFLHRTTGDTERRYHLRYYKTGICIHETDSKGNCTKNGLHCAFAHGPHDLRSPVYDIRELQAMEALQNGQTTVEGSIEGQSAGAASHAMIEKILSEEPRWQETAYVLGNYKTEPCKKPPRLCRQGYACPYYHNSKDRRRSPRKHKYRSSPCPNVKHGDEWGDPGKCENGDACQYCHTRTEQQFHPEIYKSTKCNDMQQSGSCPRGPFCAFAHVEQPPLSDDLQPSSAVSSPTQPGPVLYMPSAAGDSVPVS
The bound/input enrichment of `AAGUGUGUUUCCACUCAAAGAAAGAAAAGGUUCACGAAGAACAUAAAUGCUGGCUUUUCCCUUAGCCCCAAUAUCAGUAAACAUCUGGCCAGCCUAUCAGUGGUUGGAAACAGGAGUCCC` is reported as 1.72 ratio.
`GAACAUUUGGCUGUUCGUUUUAAACUACAGGAUGUUGCAGACUCAUUUAAGAAAAUUUUUGAUGAAGCAAAAACAGCCCAAGAAAAAGAUUCAUUGAUAACACCUCAUGUUUCUCAUCUG` gave a bound/input enrichment of 0.0842 ratio.
`GCUGUUUCCUUCUGAGCUGUGGAGAUCACACCAUCCUGUCGCCCUGCAAAUAAUUGUGGAUCAUUUACCUUGAGGCUGCAGAGUGGGUUCCAGGACUCUUACUUCACUGUGGAGGGACUU` has a bound/input enrichment of 0.132 ratio.
`CCGGGUCAGCUGAGGUGGACGGCCUCGGCAAGCGGGUUUUUUUCCCCUAGAGUUGUAUAUAUAGAGCAUCCUGGACUCCACAAUGAACGGACAGUUGGACCUAAGUGGGAAGCUGAUUAU` has a bound/input enrichment of 1.38 ratio.
For `UGUGGGGCCUGGCUUUGGGCAGCUGCUCAUCAUUGAGGAAGUGGCAGGACUUGGAGGAAGUUAUGUGUGAAUGUUGUCAAGUCCUGAAGUCCUAUGAUGCACUGUGGCCCUAGAAAACGA`, the bound/input enrichment was 0.108 ratio.
For `UCAUCUUCUGUUGCUUUUAAAUUAUCUGACAAUGGAGACUCUAUUCCUUAUACCAUCAAUAGGUAUUUGAGAGACUACCAAAGAGAAGGAACCCGGUUUCUUUAUGGACACUACAUCCAU`, the bound/input enrichment was 0.27 ratio.
With `CGCCUUCUCAACCAGCAGCGCGAGUAUGAGGCCCAGCAGCAGUAUCGCCAACACAUCCAGGUUUUCAUCGACCGUUUUCGAUACAAUGCAAACAGAGCCUCUCAAGUGCAGAGUAAACUG` the bound/input enrichment was 0.114 ratio.
With `AAUGUUGUAACUCGGAGGUUUAGCAAAGCUGACACAAUAGAUACGAUUGAGAAGGAAAUAAGAAAAAUCUUCAAUAUUCCAGAUGAGAAGGAGGCCAGACUGUGGAACAAGUAUAUGAGC` the bound/input enrichment was 0.613 ratio.

Study 4
Target: Prothrombin, mature alpha-thrombin (F2, Homo sapiens, UniProt P00734)
Method: aptamer microarray, sandwich
Molecule type: DNA with 2'F-ANA
Medium: in vitro
Tested at: 200 nM
Notes: whole 15-mer aptamer, many near background
Added: Cy3 exosite-II aptamer, 400 nM
Direction: higher = stronger binding
Sequence: GGTTGGTGTGGTTGG
For `2'F-ANA at 4 9 10 11`, “mean fluorescence intensity” read 131 a.u.
`2'F-ANA at 3 4 6 13 14` — result for “mean fluorescence intensity”: 244 a.u.
Under “mean fluorescence intensity”, `2'F-ANA at 2 3 8 10 11 12 13` is recorded as 426 a.u.
Under “mean fluorescence intensity”, `2'F-ANA at 1 3 5 7 8 9 10 13 15` is recorded as 49.1 a.u.
`2'F-ANA at 2 8 9 11 12`: “mean fluorescence intensity” 600 a.u.
For `2'F-ANA at 1 3 5 6 8 11 13 14`, “mean fluorescence intensity” read 45.5 a.u.
For `2'F-ANA at 2 4 5 7 8 9 11 15`, “mean fluorescence intensity” read 57.5 a.u.
`2'F-ANA at 2 3 4 5 7 8 9 11`: “mean fluorescence intensity” 85.2 a.u.

Excerpt of the above (study 3):
The bound/input enrichment of `AAGUGUGUUUCCACUCAAAGAAAGAAAAGGUUCACGAAGAACAUAAAUGCUGGCUUUUCCCUUAGCCCCAAUAUCAGUAAACAUCUGGCCAGCCUAUCAGUGGUUGGAAACAGGAGUCCC` is reported as 1.72 ratio.
`GAACAUUUGGCUGUUCGUUUUAAACUACAGGAUGUUGCAGACUCAUUUAAGAAAAUUUUUGAUGAAGCAAAAACAGCCCAAGAAAAAGAUUCAUUGAUAACACCUCAUGUUUCUCAUCUG` gave a bound/input enrichment of 0.0842 ratio.
`GCUGUUUCCUUCUGAGCUGUGGAGAUCACACCAUCCUGUCGCCCUGCAAAUAAUUGUGGAUCAUUUACCUUGAGGCUGCAGAGUGGGUUCCAGGACUCUUACUUCACUGUGGAGGGACUU` has a bound/input enrichment of 0.132 ratio.
